Measured values of several laboratories.
Parts stem from different laboratories: compare values within a part only.

Study 1
Target: PABPC1L2, full length, GST fusion (mouse, UniProt A0ABA7IW68)
Technique: RNAcompete
Molecule type: RNA
Sample: in vitro
Tested at: 20 nM
Notes: 7-mer, probes averaged, single round
Relative to: mean of 7-mers
Reading: higher = stronger binding
Construct (chain): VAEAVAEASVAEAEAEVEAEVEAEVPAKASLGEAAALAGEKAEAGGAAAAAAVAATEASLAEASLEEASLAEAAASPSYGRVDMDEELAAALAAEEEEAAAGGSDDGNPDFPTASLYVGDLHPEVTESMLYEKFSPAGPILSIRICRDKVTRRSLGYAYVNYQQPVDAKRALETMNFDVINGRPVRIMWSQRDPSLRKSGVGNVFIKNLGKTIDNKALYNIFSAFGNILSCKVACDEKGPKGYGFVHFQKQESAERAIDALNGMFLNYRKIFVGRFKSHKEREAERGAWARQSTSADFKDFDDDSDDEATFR
Strand	7-mer Z-score
CCUGUCA	-0.266
CUCAUGG	-0.135
GAACGUA	-0.0736
CACCCGA	-0.184
CCUUUUC	-0.436
GUUAAUU	-0.204
CUAUCGA	-0.282
GUUUAGA	-0.229
UUGGACG	-0.0844
GCCAUAU	-0.188
UCUAUAG	-0.267
GCGUAGG	0.00617
UGGAAAU	0.0497
UUUUCUC	-0.36
CGAACCC	-0.179
GAUGACA	-0.157
AAAGUAA	1.61
UGUGAAC	-0.128
CGGCAUU	-0.193

Study 2
Target: Transcription factor Sp1 (SP1, Homo sapiens, UniProt P08047, residues 1-785, full length assumed)
Sequence of UniProt P08047 (whole entry, looked up): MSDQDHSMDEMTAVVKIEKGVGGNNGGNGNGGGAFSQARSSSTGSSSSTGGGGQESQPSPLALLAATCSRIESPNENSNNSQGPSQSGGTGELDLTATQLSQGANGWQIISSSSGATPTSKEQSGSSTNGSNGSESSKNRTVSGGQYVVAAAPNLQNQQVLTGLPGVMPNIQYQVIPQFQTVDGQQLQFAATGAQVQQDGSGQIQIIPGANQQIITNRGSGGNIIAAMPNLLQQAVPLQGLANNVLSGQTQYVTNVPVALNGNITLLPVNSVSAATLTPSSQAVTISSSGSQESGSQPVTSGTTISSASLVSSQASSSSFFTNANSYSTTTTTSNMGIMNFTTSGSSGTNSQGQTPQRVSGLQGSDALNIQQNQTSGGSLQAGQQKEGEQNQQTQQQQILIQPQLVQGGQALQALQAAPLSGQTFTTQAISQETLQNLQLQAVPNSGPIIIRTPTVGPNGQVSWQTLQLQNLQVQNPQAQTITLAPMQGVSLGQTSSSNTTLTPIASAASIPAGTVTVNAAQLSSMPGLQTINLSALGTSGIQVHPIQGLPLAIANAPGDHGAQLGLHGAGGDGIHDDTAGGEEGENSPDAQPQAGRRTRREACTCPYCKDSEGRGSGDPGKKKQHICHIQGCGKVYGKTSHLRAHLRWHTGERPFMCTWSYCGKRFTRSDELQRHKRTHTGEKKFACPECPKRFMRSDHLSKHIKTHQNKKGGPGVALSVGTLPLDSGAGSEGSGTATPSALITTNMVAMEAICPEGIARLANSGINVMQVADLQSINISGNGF
Technique: protein-binding microarray
Molecule type: double-stranded DNA, one strand shown
Sample: in vitro
Tested at: not given
Notes: k-mer, scored over probes, only values ≥0.25
Reading: higher = stronger binding
Strand	E-score
ATGACGCA	0.265
CCGCCCAA	0.333
AAACTTGC	0.256
AACATGTG	0.27
CACCTCCC	0.267
CACACCTA	0.301
CCAACCCC	0.4
CCGCCCAG	0.302
GTATACAC	0.281
CACATATC	0.267
CACGTGGG	0.26
AATTACCC	0.274
CCTGCCCC	0.297
AGTGGGAG	0.341
GCCCACCA	0.251
CACACCCC	0.408
ACCATGTA	0.251
CCGCCCCG	0.482
GGTGGGTA	0.348
TAGATACA	0.275
CATTCATA	0.316
AGTATATA	0.348
CAAACCCC	0.276

Study 3
Target: RNA binding protein fox-1 homolog 2, RRM domain, GST-SBP tag (RBFOX2, Homo sapiens, UniProt O43251-10, residues 100-194)
Technique: RNA Bind-n-Seq
Molecule type: RNA
Sample: in vitro
Tested at: 365 nM
Notes: natural RNA segment, single round, ends assumed
Relative to: no-protein control
Reading: higher = stronger binding
Constant ends, left off below: GGGAGUUCUACAGUCCGACGAUC … UGGAAUUCUCGGGUGCCAA
Construct (chain): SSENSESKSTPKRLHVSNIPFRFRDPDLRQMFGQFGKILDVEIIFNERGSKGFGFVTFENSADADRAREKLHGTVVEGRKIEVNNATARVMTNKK
Strand	RBNS enrichment (R)
UUGGUGUCAACCUUUUUCACUGAAUAAAAAUUUAACUGGGUUAAAAAAGAAAAACAAUGAAAAAAAAUAAAGACACCGCCAUCACCUAUUUAAAUAUCCACUGUGUGUGU	0.742
AGCCCCUGAGAACCCCAUCUUCCCCUGGUUCUCUUGCCCACUCCCCUGCUGGGGCUCCUUCCUGGCACUGAGGAGGGGCGCUCCCAAUGCUGUGAGGCAGCGGGGAGGGA	0.324
CUUUCAGGGUAAUAAAGUGGGGAAAAGGAACGUCUUCUCAAUGCAAGAACAUAAGCUUUCUCGUAUAUACCUGUAUGCUACAGUUUUUCACAUGGAAUUCCGUUUUCUGA	0.319
CAGGCUGGAGUCAGAAAUGUUUCCCAAAGAGUGAGUCUUUUGCUUUUGGCAAAACGCUACUUAAUCCAAUGGGUUCUGUACAGUAGAUUUUGCAGAUGUAAUAAACUUUA	0.505
CAUAUUAAAGCACAUAUGUAUAUAUCUUUUAUUUAUAAAUAAAAUUUUAAAACAAUAGUUUCAGUAUAGCCACAAAAGCUCUUUUGUCUUCAGUACAACGUUUGGGAGUU	0.57
UUAACUCGUUCAAAUAAUGUGGUCAUAACUUACACAUUUAAGCGUAUAUUGGAAUUGUUAACUCAAAUUGUAGUCAAAAAAAAAAAAUCAGGAAUUUUGUCCGUGUAUAA	1.61
CUGAUAGAUGCAUUAGAAGUCAGCCAGCGCAUAGGUGCUCCCUCUAUAUUAUGGAGAAAGCAAAACCCUGCAAAUGACCAAAUGGUGUCCAAAGAGCAGCAUGACAUUGG	2.44
UCGCCUGCUUUGUGCCAGGCUGGUCUGUGUCCCCCUGAGCCUCAUGGCCUACGGUGAUGCCUGUGGUGAUGCCAGGUUGUCCGCUCACAUGAGUCCCAUCUGUAAAUUCU	0.286
GUUAGUAGCUUCACAGGGCUUUUAUGUUUAACUUAUUCCCAGGGGCCGUCCCACCCUGCUGUGCCUGCACAGUUCCCAGUGCCUGUGCCUGCGCCUGCUGGGGACAGUGU	2.2
CAAGUUUUAGAAAAUCUUAGAAGAGGGGUGGGUGCAUGUCUUAAUGCUGGGAAGCGGCAACUUUGGGGUUGAACUUACUUGAAUGGAUUAAAAAUUGCAUUGUGUUACAG	3.19
CUCGGGGGUGGUUGUUCUUCAAGCAAGUUCUGCUUGCACUUUUGCAUUUGCCUAACAGACUUUUGCAGAGGCGAUGGCAGAGAGCAGCUGCAGGCAUGGUCCCUGGAGCC	0.251
CUGCCUUCAACAGGGCCUCUUAUGGGAGGGGCUCCAGGGAUCCUUUAAGGGUAACCCUGCUUUCAAGGAGGAAGUCUAUGUCUAUGGAAAGUUAAGUAGGAGGGAGAGAG	0.927

Study 4
Target: Hepatocyte nuclear factor 3-alpha (Foxa1, Mus musculus, UniProt P35582, residues 1-468, full length assumed)
Sequence of UniProt P35582 (whole entry, looked up): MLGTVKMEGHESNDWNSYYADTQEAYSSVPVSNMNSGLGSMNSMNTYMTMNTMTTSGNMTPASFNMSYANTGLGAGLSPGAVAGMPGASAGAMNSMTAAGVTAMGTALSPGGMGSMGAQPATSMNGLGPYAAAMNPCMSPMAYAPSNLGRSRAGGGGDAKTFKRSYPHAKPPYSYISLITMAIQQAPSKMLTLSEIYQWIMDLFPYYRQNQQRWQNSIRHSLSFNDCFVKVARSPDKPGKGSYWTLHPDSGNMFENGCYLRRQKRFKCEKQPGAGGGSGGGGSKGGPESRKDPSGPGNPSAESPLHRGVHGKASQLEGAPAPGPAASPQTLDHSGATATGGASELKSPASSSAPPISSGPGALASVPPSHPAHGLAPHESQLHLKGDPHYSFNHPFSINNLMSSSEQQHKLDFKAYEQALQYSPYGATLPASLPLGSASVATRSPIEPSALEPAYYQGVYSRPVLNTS
Technique: EMSA with sequencing
Molecule type: double-stranded DNA, one strand shown
Sample: in vitro
Tested at: 10 and 20 nM
Notes: whole designed probe, mean of two concentrations, ends assumed
Relative to: negative control set to 0
Reading: higher = stronger binding
Constant ends, left off below: GTGAGCGGTGCCCATTGATGGGGAAC … TTTCACTGGGATCGTGGGGAC
Strand	normalised bound fraction
GGGTCCCGGGCGGCGGCAGGAATGCAGGAATGCGCACAGGCTGTGGGCGGCCAGGAGGGAGTCCCGGCGCCTGCCCCGGCGGAAGTGAGTCTTAGAGTACCCTGTCCAACACCTCCCCCCGCCAGCGCGGAAGGCCGGGCTACCTGCGCGCCTGGCAGCGCCTGGCAGCCGGCTGGGTGGGGCGCAGGGGAGC	-0.0638 ratio
GAGCTCTTCCTTTCCCTTACTTCCTTCTCAGGTTGTAGAATACAAGCTCAGCACTTTCCTGGCTTCCCTCTATTGCTCTGGGAAAGATAGTAAGTAAATAGTGTCTGTTGCCAAAGGGAGAAGAATAAACATAGGCTGGATCACCAAATGGTGCTGCATTTTATTTGTATGGTGTCAGAGACACTGGCTGCTT	0.435 ratio
GAAAGCTGCTTTTTCCAACAACCACCCGAATCAATTTTGCCCAGATTGGGGTGTCTGCCTTCGCCCAAGTGGAAACAATGCTGGTCTTTCCATATTTACATTGAATTTGGGTTCTTTCCCCTTTTTTGAAAGGCAAAATCAAGCGGTGGCTTACACTTTTCAGCAGCTTTAAAAATAAATAATGGTGATGGAC	0.146 ratio
ATCTTCCCCCTCTTCCTTGCCCCACCAGCTCACCTTCCCGGGTTATTTGCAGATAGGAAAATAAATAAAGCCGGCATTCGTTAACCCTCTTCTGGCGCAAACTGCTGTTTGCTCTGGATGAATCATGGTCCTTTGGCGATGCGGCACGACCGGGGACCAAAGCACCGTGTCAGGGCCATGATCCGGGGTGGCC	0.361 ratio
GGACAGGATTAGAGAAGCAACGTAGAAGTTCAAATATTTCACCTACCTGTCAACAGATTAGTGTGTGTTAAGTCAATATCTTTGCCAGATTAGGCAAACAAAAAGATCGTGTTGTGCAATATATGGGACATACTTATACTACAGTTTTATCTGTTGTTTATTTGAGGTTCAAATTACACTGGCAGCCCTTCAT	0.39 ratio
CATCTCGGCCTCCATAACTGCTGGGATTACAAGCATGAGCCACTATACCTGGCTGAAATTTTTTAACATACTAGTATTTGTGTAATTTAAAAAATAATCTGGCTGGGCACGGTGGCTCATGCCTGTAATCCCAGCACTTTGGGAGGCCGAGGCAGGTGGATCCTGAGGTCAAAAGATAGAGACCGTCCTGGCC	0.0674 ratio
ATCTTCCCCCTCTTCCTTGCCCCACCAGCTCACCTTCCCGGGTTATTTGCAGATAGGAAAATAAATAAAGCCGGCATTCGTTAACCCTCTTCTGGCGCAAACTGCTGTTTGCTCTGGATGAATCATGGTCCTTTGGCGACGCCAGGCTCCGGGAGAAAAAAAAACCGTGTCAGGGCCATGATCCGGGGTGGCC	0.325 ratio
ATAATGTCTTAGATTAAAGACGTTGCCTTTAATATCTGTTGGGAAGGAAATGTCCAGACTTTTCAAATCTCTTATTATATGTTTCCTTTTTTTGTTTACATAGGGAACAATGTTTATAGTCGTGTGTACAGTGGGGGTCTACAACAAGAAGTGTATATTTTCAAACAATTTTTTAATGATTTAACAATTTTTG	0.544 ratio

Study 5
Target: Phosphate system positive regulatory protein PHO4, full length, GST-tagged (PHO4, Saccharomyces cerevisiae, UniProt P07270, residues 1-312)
Technique: competition protein-binding microarray
Molecule type: double-stranded DNA, one strand shown
Sample: in vitro
Tested at: 2 µM
Notes: whole 60-bp probe, lowest competitor level
Together with: Cbf1 competitor, 0.05 µM
Reading: higher = stronger binding
Constant ends, left off below: … GTCTTGATTCGCTTGACGCTGCTG
Residues (chain): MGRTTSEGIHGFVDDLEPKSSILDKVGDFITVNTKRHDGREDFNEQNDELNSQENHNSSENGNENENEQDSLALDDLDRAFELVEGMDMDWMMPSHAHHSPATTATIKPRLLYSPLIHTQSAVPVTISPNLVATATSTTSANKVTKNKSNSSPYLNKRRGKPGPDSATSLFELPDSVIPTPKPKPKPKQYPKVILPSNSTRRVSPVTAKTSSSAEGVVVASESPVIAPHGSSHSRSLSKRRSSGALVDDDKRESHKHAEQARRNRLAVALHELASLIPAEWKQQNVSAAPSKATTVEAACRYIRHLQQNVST
Strand	fluorescence intensity [a.u.]
CGGGGTTAAGTTTGTCACGACACTTGCTTGCAGCAG	4410
CTAACGAAGGTTTGCTTAGTGGGTGACAAGCCAAGT	3590
AATTGAGAGGGTTTTCACGGGTAGTGGGCACAATGT	6460
TGCGCAACAACTTGTCACCATACTTTATGTCTAGAA	3920
GTCTTGTCTCATTGTCACGGTACTTTCCCCACTTCA	4540
CTTCTGTAAATTTTTCACGTGGTATGACGCGCCCCG	14800
TCGTCGGTTTATTGTCTCGTGGTGATTTGCGTTAAA	8520
TTTTCAAGGGATAAGCACATGACAATGGGCGACAAA	8100
GCAATAATGAACCGTCACATGCAAGCCCCATACGCC	8470
AAAAAAAAATGTGAAAACGTGATGGCATTTTTTACA	15000
